Measurements from different studies.
Every numbered part comes from another study and shows a few of its results, in no order. Positions count from the first letter of the parent shown.

Study 1
Target: RNA binding protein fox-1 homolog 2, RRM domain, GST-SBP tag (RBFOX2, Homo sapiens, UniProt O43251-10, residues 100-194)
Method: RNA Bind-n-Seq
Form: RNA
Sample: in vitro
Tested at: 365 nM
Notes: natural RNA segment, single round, ends assumed
Baseline: no-protein control
Reading: higher = stronger binding
Constant ends, left off below: GGGAGUUCUACAGUCCGACGAUC … UGGAAUUCUCGGGUGCCAA
Construct (chain): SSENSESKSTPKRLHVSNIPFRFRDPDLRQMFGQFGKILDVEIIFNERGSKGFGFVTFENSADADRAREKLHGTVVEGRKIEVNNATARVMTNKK
`AUAGUCUUUAAAAAUCAGUCCCAGAAGAGAGCAUUGCUUUACUGAGGGGCCUUCUCAGUGCAGUGUCCAUGUGCCUCUAGCUCCCGUUGGUGUGGAGGGUACUGCCUUGG` — result for “RBNS enrichment (R)”: 0.248.
Under “RBNS enrichment (R)”, `UGCAAUAGCCCCCCUGCAACACUGCAAUAAUCCUUCAGUGUCUCCCCUGGGCUCAAUUCACUUCCUUAUUUGACAAAGUGGAGGUGAGACUUGUAUUCUUAAAAUUGGAG` is recorded as 0.276.
`ACGCCCUGAGUACGGGUACCAUGCUCUGUUUACUUUAGGAUCUCCAGCACCAAGCAAGUGCCUGGCACAUAGUCUGUGCCCUUAACAUUUGUAGAAAGGAGCUCACCAGC` — result for “RBNS enrichment (R)”: 0.197.
`UUUAAGAAAUGUAUCCUGUUUGCAAAGGCACAGUAAAGUUGCAUCUUAUAGACUAUAGGCAAUAAAGCUAACAAUAAACCUUAUUUAACACAAACCACAUCCAUAUCCUC`: “RBNS enrichment (R)” 0.677.
For `AGCCUUACCUUUGAUGUCUGAAAUGAAACCCCCUUCUCCAAAGGCAAAAUUCGGAGACUUUGAUCUUUGCUACUGGAGUCCUUUAACAACAUCUAUAACGAUAAAAAAUU`, “RBNS enrichment (R)” read 0.382.
Under “RBNS enrichment (R)”, `ACAGUAUGUUUGUCAGCCAACUGAUUUAAAAGGCCUUUAACUGUUUUGGUUGUUGUUUUUUUUUUAAGCCACUCUCCCCUUCCUAUGAGGAAGAAUUGAGAGGGGCACCU` is recorded as 0.441.
For `UAUUAGUUUAGGUCGGGAACUGAGAUAUUGUAAUCAAAUAGUUAACAUCAGGAAGUUAAUUUGGCUGGCAAAAUUCUAGGGAAACUUGGCCAGAAAACUGGUGUUGAAGG`, “RBNS enrichment (R)” read 0.597.
For `ACAAAAACCCUAAAUAAAUAAAAGAAGUAAAAAAAAACCACACACACACAAGGAGCUGGAGAGAUGGCUCAGUGGUUACGAGCACUGACUGCUCUUCUAGAGAUCCUGAG`, “RBNS enrichment (R)” read 0.746.
`CACGUGCUCCGUGGUACUUAGAGCCCUGGGGGCCCCGCUCGGACUCCGGGUCUCCCUAGGAUAUGCCCCAGUAGCAUUUGCUGUGUAGUCUGUGUGUGAAAUUUGGGCAU` — result for “RBNS enrichment (R)”: 0.418.
`GGCUACAUUGUAAUCUGCUUUGUUAAUGAAAAUGAUAAAACAGAAUAUUGACAAGCUAGGACACCUGUGGUAUCUUUAAUUGUAUCUCCUUCAGAAGUUUGCUUCUUAUG`: “RBNS enrichment (R)” 0.238.
Under “RBNS enrichment (R)”, `UUUACUGUGACUUCAUGAAGAAUAUAAUUGCAAUAUCACCUAAAUUUUUAUCCUGGCUGGGAUGGGGCAGAUUCUUACUAUGGACAAUUUCUGGAACUUACAGUAUGAAG` is recorded as 0.908.
For `AGUAAAGUAAAAAACCUAUUAAAUUGAGGCUAGAGCUGGAGAUGUAAUUGGUUUUUGAGAAACAUUAGUAUAAAGCUUGCCCUUGUUGUGUGGAAGAAGCCAUUUUGUAC`, “RBNS enrichment (R)” read 0.561.

Study 2
Target: ABI1, truncated, D143A, DHFR fusion (Arabidopsis thaliana)
Method: DHFR PCA, deep sequencing
Sample: yeast
Notes: methotrexate growth selection, single substitutions
Together with: (+)-ABA 710 µM
Baseline: wild-type fitted maximum
Reading: higher = stronger binding
Starting sequence: PYL1, truncated, DHFR fusion (Arabidopsis thaliana); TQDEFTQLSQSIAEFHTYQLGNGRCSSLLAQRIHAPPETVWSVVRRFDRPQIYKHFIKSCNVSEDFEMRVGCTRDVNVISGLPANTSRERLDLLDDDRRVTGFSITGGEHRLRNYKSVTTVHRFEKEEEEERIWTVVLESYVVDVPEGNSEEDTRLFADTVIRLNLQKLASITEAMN; partner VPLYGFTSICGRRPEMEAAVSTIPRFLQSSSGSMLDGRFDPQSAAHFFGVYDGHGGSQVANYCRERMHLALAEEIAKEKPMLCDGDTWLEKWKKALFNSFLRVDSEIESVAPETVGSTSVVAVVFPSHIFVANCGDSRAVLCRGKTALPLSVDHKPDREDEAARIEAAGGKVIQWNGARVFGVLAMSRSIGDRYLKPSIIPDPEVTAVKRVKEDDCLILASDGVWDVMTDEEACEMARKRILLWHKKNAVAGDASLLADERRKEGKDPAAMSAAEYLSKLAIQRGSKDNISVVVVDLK
`E64A`: “relative binding score” 105%.
`L94I` — result for “relative binding score”: 106%.
`T106W`: “relative binding score” 97.3%.
For `V62P`, “relative binding score” read 92.6%.
`Y18C`: “relative binding score” 91.4%.
`V100S` — result for “relative binding score”: 89%.
For `R155L`, “relative binding score” read 95.4%.
For `E14T`, “relative binding score” read 86.1%.
Under “relative binding score”, `R49Q` is recorded as 105%.
`V78D` — result for “relative binding score”: 1.26%.

Study 3
Target: PABPC1L2, full length, GST fusion (mouse, UniProt A0ABA7IW68)
Method: RNAcompete
Form: RNA
Sample: in vitro
Tested at: 20 nM
Notes: 7-mer, probes averaged, single round
Baseline: mean of 7-mers
Reading: higher = stronger binding
Residues (chain): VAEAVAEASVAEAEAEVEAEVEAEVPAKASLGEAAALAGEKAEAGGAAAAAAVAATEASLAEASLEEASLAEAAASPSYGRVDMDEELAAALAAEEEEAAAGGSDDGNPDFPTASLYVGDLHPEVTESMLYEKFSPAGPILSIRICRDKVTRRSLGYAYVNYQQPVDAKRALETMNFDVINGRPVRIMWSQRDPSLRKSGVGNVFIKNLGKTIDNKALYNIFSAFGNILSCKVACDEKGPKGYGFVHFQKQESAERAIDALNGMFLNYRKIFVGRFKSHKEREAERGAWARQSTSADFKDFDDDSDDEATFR
For `AUGGACG`, the 7-mer Z-score was 0.0841.
`UACUUGU` gave a 7-mer Z-score of -0.316.
`UGGGGCC` has a 7-mer Z-score of 0.0623.
For `GCCUUCA`, the 7-mer Z-score was -0.365.
`CGCGUUU` gave a 7-mer Z-score of -0.492.
The 7-mer Z-score of `GGAGGUG` is reported as 0.216.
With `AUCUUCU` the 7-mer Z-score was -0.324.
For `ACGCCUU`, the 7-mer Z-score was -0.329.
With `AUUAGAU` the 7-mer Z-score was -0.219.
`CAUAUGG` has a 7-mer Z-score of -0.121.
The 7-mer Z-score of `UCAGUGU` is reported as -0.191.
For `GCGCCUA`, the 7-mer Z-score was -0.306.
`UGUAACG` has a 7-mer Z-score of -0.229.
`GCUCACC` gave a 7-mer Z-score of -0.503.
With `GUAUACA` the 7-mer Z-score was 0.1.

Study 4
Target: CCND3, cyclin fold, Cln2 fusion (human)
Method: yeast growth competition, sequencing
Sample: yeast
Notes: weak parent motif
Baseline: not given
Reading: higher = stronger binding
Starting sequence: CDKN1A docking peptide (human); SKACRRLFGPVDS
For `SKACRRLFGSVDS [P10S]`, “normalised enrichment score” read 0.365.
`SKARRRLFGPVDS [C4R]`: “normalised enrichment score” 0.23.
`SKACYRLFGPVDS [R5Y]` — result for “normalised enrichment score”: 0.126.
`SKACTRLFGPVDS [R5T]`: “normalised enrichment score” 0.103.
Under “normalised enrichment score”, `SKACRRLFMPVDS [G9M]` is recorded as 0.458.
For `SKACRRLRGPVDS [F8R]`, “normalised enrichment score” read 0.182.
`SVACRRLFGPVDS [K2V]`: “normalised enrichment score” 0.516.
For `SKPCRRLFGPVDS [A3P]`, “normalised enrichment score” read 0.532.
Under “normalised enrichment score”, `SKACRRLFWPVDS [G9W]` is recorded as 0.365.
Under “normalised enrichment score”, `SKACRRLFGPVWS [D12W]` is recorded as 0.474.
Under “normalised enrichment score”, `SKYCRRLFGPVDS [A3Y]` is recorded as -0.0437.
Under “normalised enrichment score”, `SKACRRLFGPRDS [V11R]` is recorded as 0.564.
For `SKKCRRLFGPVDS [A3K]`, “normalised enrichment score” read 0.738.
For `SKACRRLFFPVDS [G9F]`, “normalised enrichment score” read 0.547.
`SKACRRLFDPVDS [G9D]`: “normalised enrichment score” 0.228.
Under “normalised enrichment score”, `SKACRRLYGPVDS [F8Y]` is recorded as -0.0773.

For quick reference, copied from above (study 3):
`CGCGUUU` gave a 7-mer Z-score of -0.492.
The 7-mer Z-score of `GGAGGUG` is reported as 0.216.
With `AUCUUCU` the 7-mer Z-score was -0.324.
For `ACGCCUU`, the 7-mer Z-score was -0.329.
With `AUUAGAU` the 7-mer Z-score was -0.219.
`CAUAUGG` has a 7-mer Z-score of -0.121.
The 7-mer Z-score of `UCAGUGU` is reported as -0.191.
For `GCGCCUA`, the 7-mer Z-score was -0.306.
